Measurements from different studies.
Every numbered part comes from another study and shows a few of its results, in no order.

Block 1 — method: RNAcompete; form: RNA; medium: in vitro; concentration: 20 nM; setting: 7-mer, probes averaged, single round; baseline: mean of 7-mers; reading: higher = stronger binding
Target: PABPC1L2, full length, GST fusion (mouse, UniProt A0ABA7IW68)
Residues (chain): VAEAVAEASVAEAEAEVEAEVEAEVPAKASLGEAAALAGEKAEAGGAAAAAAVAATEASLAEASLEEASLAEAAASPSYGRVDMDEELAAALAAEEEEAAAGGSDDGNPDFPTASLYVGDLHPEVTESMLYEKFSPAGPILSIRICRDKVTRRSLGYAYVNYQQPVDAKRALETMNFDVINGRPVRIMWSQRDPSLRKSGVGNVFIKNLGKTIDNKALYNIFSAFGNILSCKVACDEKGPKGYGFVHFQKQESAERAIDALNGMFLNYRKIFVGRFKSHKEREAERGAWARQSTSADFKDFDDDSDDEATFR
Strand	7-mer Z-score
GAUGACG	-0.0428
CAUUUCU	-0.358
CGUUUGC	-0.537

Block 2 — method: protein-binding microarray; form: double-stranded DNA, one strand shown; medium: in vitro; concentration: not given; reading: higher = stronger binding
Target: Hepatocyte nuclear factor 3-beta, forkhead domain (FOXA2, Homo sapiens, UniProt Q9Y261, residues 142-269)
Setting: k-mer, scored over probes, only values ≥0.25
Construct (chain): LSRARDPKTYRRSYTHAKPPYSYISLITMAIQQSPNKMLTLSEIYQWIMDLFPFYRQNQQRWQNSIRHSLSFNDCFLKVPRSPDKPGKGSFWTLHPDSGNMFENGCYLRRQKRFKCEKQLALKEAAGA
Strand	E-score
GGATATAC	0.288
ATACTTAA	0.298
AGAAATAT	0.295
ACATACGA	0.265
AGACATAT	0.289

Block 3 — method: universal PBM; form: double-stranded DNA, one strand shown; medium: in vitro; concentration: 600 nM; reading: higher = stronger binding
Target: Sal-like protein 4, full length isoform A (SALL4, Homo sapiens, UniProt Q9UJQ4, residues 1-1053)
Sequence of UniProt Q9UJQ4 (whole entry, looked up): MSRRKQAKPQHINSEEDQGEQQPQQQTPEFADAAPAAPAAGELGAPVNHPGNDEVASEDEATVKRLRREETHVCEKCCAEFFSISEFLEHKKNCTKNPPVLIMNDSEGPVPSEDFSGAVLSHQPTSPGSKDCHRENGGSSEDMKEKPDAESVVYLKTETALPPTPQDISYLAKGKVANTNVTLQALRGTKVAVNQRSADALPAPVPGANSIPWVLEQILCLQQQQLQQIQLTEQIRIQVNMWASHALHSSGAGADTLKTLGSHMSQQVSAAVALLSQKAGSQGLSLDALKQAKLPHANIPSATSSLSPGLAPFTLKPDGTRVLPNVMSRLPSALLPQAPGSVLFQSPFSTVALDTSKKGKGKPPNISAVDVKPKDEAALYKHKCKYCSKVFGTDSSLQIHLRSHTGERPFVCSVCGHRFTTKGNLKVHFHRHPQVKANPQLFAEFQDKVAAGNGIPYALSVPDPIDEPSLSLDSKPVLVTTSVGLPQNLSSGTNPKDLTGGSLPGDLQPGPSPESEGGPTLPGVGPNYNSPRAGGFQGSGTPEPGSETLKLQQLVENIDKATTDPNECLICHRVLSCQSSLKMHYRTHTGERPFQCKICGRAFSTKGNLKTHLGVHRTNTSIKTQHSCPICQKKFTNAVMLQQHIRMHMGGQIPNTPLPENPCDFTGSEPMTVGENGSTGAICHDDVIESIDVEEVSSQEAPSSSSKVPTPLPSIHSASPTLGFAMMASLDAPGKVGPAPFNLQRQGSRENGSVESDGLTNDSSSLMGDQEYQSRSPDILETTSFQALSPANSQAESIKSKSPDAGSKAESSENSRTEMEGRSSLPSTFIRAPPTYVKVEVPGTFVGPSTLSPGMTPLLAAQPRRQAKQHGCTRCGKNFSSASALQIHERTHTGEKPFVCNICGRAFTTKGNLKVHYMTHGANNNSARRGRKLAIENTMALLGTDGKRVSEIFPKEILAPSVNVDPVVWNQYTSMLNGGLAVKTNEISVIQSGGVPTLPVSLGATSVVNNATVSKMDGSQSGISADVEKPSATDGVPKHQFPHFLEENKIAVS
Setting: 8-mer, flanks averaged, mean of replicates
Strand	E-score
GAGAGGAA	-0.043
ACGTCTTG	0.00358
CACGAAGG	-0.116
ATGGCAAC	0.201
TAAGCCCA	0.018

Further values, each from its own experiment
Molecule	target	assay	system	conditions	how to read	endpoint	result
PhoQ, residues 284 288 289 292 302 303 AGGCYF	PhoP, residues 12 14 15 18 19 DLLYY (Escherichia coli, UniProt P23836)	Sort-seq, item: YFP reporter	E. coli	PhoQ-PhoP variant library, added: 10 µM Mg2+	baseline: high Mg2+ state, higher = stronger signaling	fold induction	2.74

Repeated from above (block 2):
Strand	E-score
ACATACGA	0.265
